Assay results from different studies.
Protocols differ between the studies behind these lines. Numbers after ± are the reported error. Non-standard residues stand in square brackets, D forms with d. No end group written: not given here. The star is where a group is joined.
CNR2: Cannabinoid receptor 2 (CNR2, Homo sapiens, UniProt P34972)
UniProt P34972, sequence (whole entry, looked up): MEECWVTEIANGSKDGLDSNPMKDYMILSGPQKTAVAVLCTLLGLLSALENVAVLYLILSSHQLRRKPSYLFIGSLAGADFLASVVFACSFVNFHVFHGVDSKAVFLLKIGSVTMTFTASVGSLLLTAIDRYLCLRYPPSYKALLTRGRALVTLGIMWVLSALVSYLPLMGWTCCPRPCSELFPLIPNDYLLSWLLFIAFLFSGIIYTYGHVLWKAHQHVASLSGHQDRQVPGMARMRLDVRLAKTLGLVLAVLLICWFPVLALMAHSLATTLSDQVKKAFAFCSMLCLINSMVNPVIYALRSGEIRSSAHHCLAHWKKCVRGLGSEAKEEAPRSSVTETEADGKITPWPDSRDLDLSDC
Kelch domain-containing protein 2: Kelch domain-containing protein 2 (UniProt Q9Y2U9)
UniProt Q9Y2U9, sequence (whole entry, looked up): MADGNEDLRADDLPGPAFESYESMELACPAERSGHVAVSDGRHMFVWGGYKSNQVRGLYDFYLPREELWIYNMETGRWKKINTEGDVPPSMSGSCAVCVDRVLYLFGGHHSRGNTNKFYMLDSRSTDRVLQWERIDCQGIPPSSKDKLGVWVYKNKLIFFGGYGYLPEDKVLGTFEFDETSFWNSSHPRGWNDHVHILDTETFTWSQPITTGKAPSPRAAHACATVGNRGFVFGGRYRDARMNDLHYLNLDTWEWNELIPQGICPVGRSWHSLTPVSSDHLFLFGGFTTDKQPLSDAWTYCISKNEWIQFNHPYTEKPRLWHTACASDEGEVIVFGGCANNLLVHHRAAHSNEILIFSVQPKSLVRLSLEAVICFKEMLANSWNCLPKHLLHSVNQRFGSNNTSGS
ESR1: Estrogen receptor (ESR1, Homo sapiens, UniProt P03372)
UniProt P03372, sequence (whole entry, looked up): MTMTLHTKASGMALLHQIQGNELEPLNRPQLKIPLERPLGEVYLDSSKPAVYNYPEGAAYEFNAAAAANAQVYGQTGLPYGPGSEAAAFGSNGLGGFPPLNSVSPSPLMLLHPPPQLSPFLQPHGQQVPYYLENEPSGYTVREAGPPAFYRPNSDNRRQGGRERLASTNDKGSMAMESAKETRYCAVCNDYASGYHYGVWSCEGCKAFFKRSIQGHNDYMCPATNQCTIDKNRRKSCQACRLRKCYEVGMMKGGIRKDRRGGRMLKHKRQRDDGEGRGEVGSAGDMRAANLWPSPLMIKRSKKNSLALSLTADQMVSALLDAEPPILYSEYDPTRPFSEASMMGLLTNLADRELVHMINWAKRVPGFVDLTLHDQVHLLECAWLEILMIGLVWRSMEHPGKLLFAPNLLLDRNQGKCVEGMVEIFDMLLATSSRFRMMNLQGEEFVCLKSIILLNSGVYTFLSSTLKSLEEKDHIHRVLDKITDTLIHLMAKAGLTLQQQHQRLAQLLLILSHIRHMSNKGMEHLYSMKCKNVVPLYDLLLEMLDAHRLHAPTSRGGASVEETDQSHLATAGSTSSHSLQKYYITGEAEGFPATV
CSK: Tyrosine-protein kinase CSK (CSK, Homo sapiens, UniProt P41240)
UniProt P41240, sequence (whole entry, looked up): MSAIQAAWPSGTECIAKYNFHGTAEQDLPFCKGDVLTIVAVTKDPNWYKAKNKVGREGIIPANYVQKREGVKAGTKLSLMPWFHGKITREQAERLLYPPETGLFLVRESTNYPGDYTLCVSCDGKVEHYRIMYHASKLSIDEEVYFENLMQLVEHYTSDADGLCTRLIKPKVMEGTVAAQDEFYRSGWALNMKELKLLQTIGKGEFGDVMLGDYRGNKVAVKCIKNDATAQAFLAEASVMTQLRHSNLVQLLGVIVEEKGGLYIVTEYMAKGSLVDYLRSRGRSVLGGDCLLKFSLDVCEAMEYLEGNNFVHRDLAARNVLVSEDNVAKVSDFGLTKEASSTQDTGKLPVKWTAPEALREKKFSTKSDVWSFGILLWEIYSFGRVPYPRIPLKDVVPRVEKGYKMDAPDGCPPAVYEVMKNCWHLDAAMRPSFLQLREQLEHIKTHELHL
ESR2: Estrogen receptor beta (ESR2, Homo sapiens, UniProt Q92731)
UniProt Q92731, sequence (whole entry, looked up): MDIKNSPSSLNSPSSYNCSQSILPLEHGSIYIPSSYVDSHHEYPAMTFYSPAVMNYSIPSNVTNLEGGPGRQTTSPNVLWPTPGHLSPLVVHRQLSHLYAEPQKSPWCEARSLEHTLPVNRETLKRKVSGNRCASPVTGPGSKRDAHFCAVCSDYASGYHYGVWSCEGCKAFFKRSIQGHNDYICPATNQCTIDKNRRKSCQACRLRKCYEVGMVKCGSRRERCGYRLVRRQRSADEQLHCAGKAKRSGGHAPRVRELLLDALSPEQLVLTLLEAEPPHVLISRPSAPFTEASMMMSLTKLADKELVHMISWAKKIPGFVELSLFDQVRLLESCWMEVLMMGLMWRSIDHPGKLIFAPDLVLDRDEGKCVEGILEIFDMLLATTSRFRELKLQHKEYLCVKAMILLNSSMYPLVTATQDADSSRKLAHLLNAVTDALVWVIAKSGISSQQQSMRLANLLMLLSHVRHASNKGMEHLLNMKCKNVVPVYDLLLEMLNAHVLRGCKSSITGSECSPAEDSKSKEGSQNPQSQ
UniProt Q9JIP7, sequence (whole entry, looked up): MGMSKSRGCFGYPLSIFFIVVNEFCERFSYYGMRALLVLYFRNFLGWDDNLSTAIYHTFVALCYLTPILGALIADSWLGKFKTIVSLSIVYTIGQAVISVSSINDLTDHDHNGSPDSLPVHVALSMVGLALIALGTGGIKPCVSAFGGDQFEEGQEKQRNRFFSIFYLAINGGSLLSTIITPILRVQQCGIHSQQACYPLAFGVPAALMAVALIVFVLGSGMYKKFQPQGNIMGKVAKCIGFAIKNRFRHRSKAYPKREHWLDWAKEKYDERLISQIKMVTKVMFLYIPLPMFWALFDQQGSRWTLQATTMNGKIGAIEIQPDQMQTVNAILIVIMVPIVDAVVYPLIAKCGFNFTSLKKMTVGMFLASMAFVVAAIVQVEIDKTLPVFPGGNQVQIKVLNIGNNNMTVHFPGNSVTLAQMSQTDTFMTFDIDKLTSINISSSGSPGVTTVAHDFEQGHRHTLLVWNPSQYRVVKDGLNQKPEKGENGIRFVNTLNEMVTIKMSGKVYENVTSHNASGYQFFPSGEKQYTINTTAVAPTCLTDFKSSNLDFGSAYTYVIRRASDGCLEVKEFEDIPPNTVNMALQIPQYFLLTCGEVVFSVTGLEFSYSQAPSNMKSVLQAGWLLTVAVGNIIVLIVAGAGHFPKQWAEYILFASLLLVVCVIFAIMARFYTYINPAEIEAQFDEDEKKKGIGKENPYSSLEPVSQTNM
UniProt O96013, sequence (whole entry, looked up): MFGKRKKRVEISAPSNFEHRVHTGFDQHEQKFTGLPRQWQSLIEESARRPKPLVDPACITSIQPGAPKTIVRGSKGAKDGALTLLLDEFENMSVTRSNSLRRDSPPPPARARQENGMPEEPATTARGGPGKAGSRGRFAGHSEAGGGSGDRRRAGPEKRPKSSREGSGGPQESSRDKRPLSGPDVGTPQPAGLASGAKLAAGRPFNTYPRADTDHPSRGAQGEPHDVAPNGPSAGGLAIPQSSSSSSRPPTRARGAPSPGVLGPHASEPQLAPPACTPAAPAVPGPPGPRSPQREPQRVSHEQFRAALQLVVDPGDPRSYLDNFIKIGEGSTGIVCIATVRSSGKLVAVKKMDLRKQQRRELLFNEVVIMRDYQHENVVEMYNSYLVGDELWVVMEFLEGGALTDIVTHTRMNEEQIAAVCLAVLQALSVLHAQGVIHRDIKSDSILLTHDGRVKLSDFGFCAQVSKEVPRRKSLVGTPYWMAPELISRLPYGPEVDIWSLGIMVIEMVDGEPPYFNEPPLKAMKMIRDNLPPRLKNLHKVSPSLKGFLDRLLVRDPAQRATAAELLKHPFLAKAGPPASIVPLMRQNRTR
UniProt P69905, sequence (whole entry, looked up): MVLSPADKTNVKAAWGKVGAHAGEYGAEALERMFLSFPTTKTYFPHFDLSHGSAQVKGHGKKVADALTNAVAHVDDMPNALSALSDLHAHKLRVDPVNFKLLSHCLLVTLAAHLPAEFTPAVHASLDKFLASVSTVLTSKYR
UniProt Q704Y3, sequence (whole entry, unmodified, looked up): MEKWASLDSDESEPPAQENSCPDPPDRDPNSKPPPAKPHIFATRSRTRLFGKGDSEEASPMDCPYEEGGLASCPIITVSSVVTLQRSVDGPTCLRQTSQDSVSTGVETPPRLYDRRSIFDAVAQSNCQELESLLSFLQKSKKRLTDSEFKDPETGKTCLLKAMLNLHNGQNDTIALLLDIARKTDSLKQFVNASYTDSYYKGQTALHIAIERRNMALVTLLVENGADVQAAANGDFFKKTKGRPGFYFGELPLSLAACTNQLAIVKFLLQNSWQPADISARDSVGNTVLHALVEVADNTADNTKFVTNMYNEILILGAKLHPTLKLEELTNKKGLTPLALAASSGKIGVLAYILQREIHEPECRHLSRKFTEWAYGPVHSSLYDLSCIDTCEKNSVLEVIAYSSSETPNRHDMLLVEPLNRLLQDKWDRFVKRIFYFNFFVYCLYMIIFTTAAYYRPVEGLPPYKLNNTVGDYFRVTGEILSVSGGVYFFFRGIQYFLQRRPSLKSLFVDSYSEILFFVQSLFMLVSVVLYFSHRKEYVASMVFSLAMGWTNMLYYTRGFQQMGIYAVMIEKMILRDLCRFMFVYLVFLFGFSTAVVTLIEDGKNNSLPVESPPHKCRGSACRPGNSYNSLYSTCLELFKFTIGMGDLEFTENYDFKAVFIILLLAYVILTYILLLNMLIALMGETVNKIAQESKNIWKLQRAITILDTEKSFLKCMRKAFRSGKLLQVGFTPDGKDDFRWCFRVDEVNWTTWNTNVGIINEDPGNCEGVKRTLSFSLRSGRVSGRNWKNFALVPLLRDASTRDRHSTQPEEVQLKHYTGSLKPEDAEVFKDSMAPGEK
UniProt P07164, sequence (whole entry, unmodified, looked up): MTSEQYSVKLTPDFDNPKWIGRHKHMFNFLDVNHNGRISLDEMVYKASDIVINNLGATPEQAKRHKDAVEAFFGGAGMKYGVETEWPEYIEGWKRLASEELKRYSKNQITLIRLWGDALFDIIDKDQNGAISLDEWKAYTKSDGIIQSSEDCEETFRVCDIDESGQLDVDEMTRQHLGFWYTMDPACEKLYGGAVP

Substance | tested on | test | system | conditions | how to read | endpoint | result
YKKRLSVELT | PAK4 (Homo sapiens, UniProt O96013) | kinase activity, substrate | peptide | – | – | kcat/Km | 300 ± 100 M⁻¹ s⁻¹
Ac-QDEVD-pNA (N-acetyl, C-pNA; pNA = O=[N+]([O-])c1ccc(N*)cc1) | Caspase-3 (CASP3, Homo sapiens, UniProt P42574) | substrate hydrolysis, substrate, colorimetric | – | pH 7.5 | – | kcat/Km | 18300 ± 1670 M⁻¹ s⁻¹
SGSRP[pS]TP (phospho-Ser; pS = N[C@@H](COP(=O)(O)O)C(=O)O) | CTD nuclear envelope phosphatase 1 (CTDNEP1, Homo sapiens, UniProt O95476) | substrate, MESG-coupled phosphate release | – | 25 °C | – | kcat | 0.024 ± 0.005 s⁻¹
CC(C)(NC(=O)c1nn(Cc2ccc(F)cc2)c2ccccc12)C1CCCN(CC(N)=O)C1 (stereo not drawn) | CNR2 | calcium mobilization, agonist | CHO-K1 expressing Gαq16 | – | relative to: CP55,940 maximum | Emax | 13 ± 2%
CCCCCc1cc(O)c(C/C=C(\C)CCC=C(C)C)c(O)c1 | SCN9A (Homo sapiens, UniProt Q15858) | steady-state inactivation shift, automated patch clamp | – | – | relative to: vehicle | lowest effective concentration | 15 µM
GGNWST | UDP-glucose:protein N-beta-glucosyltransferase (Actinobacillus pleuropneumoniae serotype 5b, UniProt A3N2T3, D215R/Q469A) | substrate | peptide | 15 min, pH 8.0, 37 °C, D215R mutant, together with: UDP-Glc 100 mM | – | kcat/Km | 4 M⁻¹ s⁻¹
O=Cc1ccc(COc2ccccc2)o1 | Hemoglobin subunit alpha, with sickle beta chain (HBA1, Homo sapiens, UniProt P69905) | oxygen affinity | sickle red cell lysate | 2000 µM | relative to: untreated | P50 change | 45.4 ± 14.6%
GSSFLSPEHQRVQQRKESKKPPAKLQPK-{Gly(Biotin)} (not fully specified; biotin-labelled) | mouse GOAT H338N | substrate | peptide | 10 µM, 5 min | – | acyl transfer | inactive
CC[C@H](C)[C@H](NC(=O)[C@@H]1CSSC[C@@H]2NC(=O)[C@H]([C@@H](C)O)NC(=O)[C@H](C(C)C)NC(=O)CNC(=O)[C@H](CC(N)=O)NC(=O)[C@@H](NC(=O)[C@@H]3CCCN3C(=O)[C@H](CC(N)=O)NC(=O)[C@H](CC(N)=O)NC(=O)[C@@H](N)CC(C)C)CSSC[C@H](NC(=O)[C@H](CCCNC(=N)N)NC(=O)[C@H](Cc3ccc(O)cc3)NC(=O)CNC(=O)[C@H](CO)NC(=O)[C@@H]3CCCN3C2=O)C(=O)N[C@@H](CO)C(=O)N[C@@H]([C@@H](C)CC)C(=O)N[C@@H](C(C)C)C(=O)N[C@@H](CC(=O)O)C(=O)N[C@@H](CCCCN)C(=O)N[C@@H](CCC(N)=O)C(=O)N1)C(=O)N[C@@H](CCCCN)C(=O)N[C@@H](CCCCN)C(=O)N[C@@H](CCC(=O)O)C(=O)O | Trpv1 (Mus musculus, UniProt Q704Y3, E571A) | ion current, activator, whole-cell patch clamp | HEK293T | pH 7.2, 22 °C | – | Hill coefficient | 1.02 ± 0.06
CCCCN1[C@@H]2CC[C@H]1CC(OC(c1ccc(F)cc1)c1ccc(F)cc1)C2 (stereo partly drawn) | SLC6A3 (Homo sapiens, UniProt Q01959, A479V/A480V) | [3H]CFT competition | COS-7 transfected | A479V-A480V mutant | relative to: mutant over wild type | affinity loss | ~10 fold
CN[C@@](C)(C[18F])C(=O)O | – | – | SCID mice (SK-OV-3 xenograft) | 30 min after injection | – | tumour uptake | 6.4 ± 3.3 %ID/g
IQGGDDSNVIGAIGGA | Kelch domain-containing protein 2 | native mass spectrometry | peptide, 200 mM ammonium acetate | 20 µM Kelch domain-containing protein 2, pH 7 | relative to: total Kelch domain-containing protein 2 signal | fraction of protein bound | 0.9%
COc1cccc(Oc2ccc(C(=O)N[C@H](CN3CCN(c4cccc(O)c4)[C@@H](C)C3)C(C)C)cc2)c1 | OPRM1 (Homo sapiens, UniProt P35372) | antagonist | CHO | together with: DAMGO | – | Ke | 33 ± 14 nM
CSCC[C@H](NC=O)C(=O)N[C@@H](CC(C)C)C(=O)N[C@@H](Cc1ccccc1)C(=O)O | Slc15a1 (Mus musculus, UniProt Q9JIP7) | intestinal transport | wild-type mice, jejunum, in situ perfusion | 0.1 µM to 7.5 mM, pH 6.5, together with: 100 mM Phe | – | K0.5 | 1.6 ± 0.4 mM
Oc1ccc(-c2c[se]cc2-c2ccc(O)cc2F)c(F)c1 | ESR1 | antagonist | HEK293T | highest tested concentration, together with: estradiol 10 nM | relative to: estradiol alone | efficacy | 67 ± 3%
FEEPIYIEPIDFE | CSK | substrate, coupled enzyme | peptide | pH 7.4, room temperature, together with: 1 mM ATP, 5 mM MnCl2 | – | kcat/Km | 1400 M⁻¹ s⁻¹
Nc1ncnc2c1ncn2[C@@H]1O[C@H](COP(=O)(O)OP(=O)(O)OP(=O)(O)O)[C@@H](O)[C@H]1O | matB (Rhodopseudomonas palustris, UniProt Q6ND88, C106A/K488A/Q457C/R286C) | nucleotide binding | – | 0.5 µM protein, pH 7.0, 20 °C, 10 mM MgCl2 | relative to: saturating ligand over no ligand | fluorescence ratio | 3.9 ± 0.2
COc1cccc2c1C(=O)c1c(O)c3c(c(O)c1C2=O)C[C@@](O)(C(C)=O)C[C@@H]3O[C@H]1C[C@H](N)[C@H](O)[C@H](C)O1 | SLC22A5 (Homo sapiens, UniProt O76082) | transporter uptake, inhibitor | – | 1 mM | – | inhibition | 56%
N[C@@H](Cc1c[nH]c2ccccc12)C(=O)O | IDO1 (Homo sapiens, UniProt P14902) | stopped-flow absorption | – | pH 7.4, 20 °C, ligand-free ferric enzyme | – | kon | 5500 M⁻¹ s⁻¹
Nc1nc2c(ncn2[C@H]2C[C@H](O)[C@@H](COP(=O)(O)OP(=O)(O)OP(=O)(O)O)O2)c(=O)[nH]1 | Gag-Pol polyprotein, reverse transcriptase (gag-pol, Human immunodeficiency virus 1, UniProt P03366, M783V/Q690N) | substrate | – | Q91N/M184V mutant range with Q91N, together with: poly(rC) template | relative to: wild type | catalytic efficiency decrease | 5 to 10 fold

Substance | tested on | test | system | conditions | how to read | endpoint | result
DDEPEYIEFDAHN | CSK | substrate, coupled enzyme | peptide | pH 7.4, room temperature, together with: 1 mM ATP, 5 mM MnCl2 | – | kcat/Km | 850 M⁻¹ s⁻¹
C[C@@H](O)[C@H](NS(=O)(=O)c1cccc2c(N(C)C)cccc12)C(=O)N[C@@H](CCCCN)C(=O)N[C@@H](CCC(N)=O)C(=O)N[C@@H](CCC(=O)O)C(=O)N[C@@H](CCC(=O)O)C(=O)N[C@@H](Cc1ccccc1)C(=O)N[C@@H](Cc1ccc(O)cc1)C(=O)N[C@@H](Cc1ccccc1)C(=O)O | Rho guanine nucleotide exchange factor TIAM1, PDZ domain (TIAM1, Homo sapiens, UniProt Q13009) | fluorescence anisotropy | – | concentration not given, dansylated peptide | relative to: model peptide Kd over peptide Kd | binding affinity fold change | 2
CC(C)C[C@H](NC(=O)[C@H](CO)NC(=O)[C@H](CC(C)C)NC(=O)[C@@H]1CCCN1C(=O)Cc1ccc2ccc3cccc4ccc1c2c34)C(=O)N[C@@H](CCCNC(=N)N)C(=O)N[C@@H](CO)C(=O)N[C@@H](CCCCN)C(=O)O | MMP9 (Homo sapiens, UniProt P14780) | substrate, HPLC | – | 500 µM, 72 h, pH 7.5, 37 °C | – | hydrolysis product | 75%
Oc1ccc(-c2cc(Br)c(-c3ccc(O)cc3)[se]2)cc1 | ESR2 | antagonist | HEK293T | highest tested concentration, 24 h, together with: estradiol 10 nM | relative to: estradiol alone | efficacy | 75 ± 4%
NWFDRSHTLFHS | HIV-1 neutralising antibody 4E10 | phage binding, M13 phage ELISA | peptide | concentration not given | lower = stronger binding | binding titer | 2e+08 M13/mL
CC(C)(CN1CCC[C@H]1C(N)=O)NC(=O)c1nn(Cc2ccc(F)cc2)c2ccccc12 | CNR2 | calcium mobilization, agonist | CHO-K1 expressing Gαq16 | – | relative to: CP55,940 maximum | Emax | 68 ± 9%
CC1N=C(c2ccccc2F)c2cc(Nc3ccccc3)ccc2NC1=O (stereo not drawn) | ADRA2A (Homo sapiens, UniProt P08913) | ligand displacement, radioligand | – | 10 µM | – | inhibition | 66%
Oc1ccc(-c2cc(Br)c(-c3ccc(O)cc3F)[se]2)c(F)c1 | ESR2 | antagonist | HEK293T | highest tested concentration, 24 h, together with: estradiol 10 nM | relative to: estradiol alone | efficacy | 59 ± 8%
O=C1C(O)=C([C@H]2CC[C@H](c3ccc(Cl)cc3)CC2)C(=O)c2ccccc21 | COB/RIP1, center P (Saccharomyces cerevisiae, UniProt P00163+P08067) | center P first turnover | – | concentration not given, preincubated with oxidized enzyme, together with: quinol | – | cytochrome b reduction | no inhibition
Oc1ccc(-c2c[se]cc2-c2ccc(O)c(F)c2)cc1F | ESR1 | antagonist | HEK293T | highest tested concentration, together with: estradiol 10 nM | relative to: estradiol alone | efficacy | 33 ± 6%
VIKVIGVGGGG | Kelch domain-containing protein 2 | native mass spectrometry | peptide, 200 mM ammonium acetate | 20 µM Kelch domain-containing protein 2, pH 7 | relative to: total Kelch domain-containing protein 2 signal | fraction of protein bound | 0.8%
CCOc1c(S)cnn(-c2ccccc2)c1=O | srtA (Staphylococcus aureus, UniProt Q2FV99) | enzyme activity, inhibitor | – | concentration not given | – | potency improvement | > 20 fold
O=c1[nH]c(/C=C/c2ccc3ccccc3c2)c([N+](=O)[O-])c(=O)[nH]1 | Riboflavin synthase (ribC, Escherichia coli, UniProt P0AFU8) | enzyme activity, substrate | Escherichia coli, recombinant riboflavin synthase | pH 7.0 | – | Ks | 2.2 ± 0.1 µM
Oc1ccc(-c2c(Cl)cc(Cl)cc2Cl)cc1 | Aequorin-1 (Aequorea victoria, UniProt P07164, C152S/C159S/C187S) | aequorin bioluminescence, inhibitor | – | 2 h, together with: coelenterazine | – | detection limit | 2.5 µM
cAMP | Potassium/sodium hyperpolarization-activated cyclic nucleotide-gated channel 2, C-terminal region (Hcn2, Mus musculus, UniProt O88703, R635A) | isothermal titration calorimetry | – | R635A, low-affinity site | – | stoichiometry | 0.45 ± 0.02
Oc1ccc(-c2c[se]cc2-c2ccc(O)cc2)cc1 | ESR1 | antagonist | HEK293T | highest tested concentration, together with: estradiol 10 nM | relative to: estradiol alone | efficacy | 57 ± 2%
Oc1cc(O)c2c(c1)O[C@H](c1cc(O)c(O)c(O)c1)[C@H](O)C2 | KDM4E (Homo sapiens, UniProt B2RXH2) | inhibitor, FDH-coupled | – | – | relative to: 20 µM over 2.5 µM ferrous ammonium sulfate | IC50 ratio | 1.1
Cc1cc(O)ccc1-c1ccc(-c2ccc(O)cc2C)[se]1 | ESR2 | antagonist | HEK293T | highest tested concentration, 24 h, together with: estradiol 10 nM | relative to: estradiol alone | efficacy | 50 ± 11%
LGWATAGG | Kelch domain-containing protein 2 | native mass spectrometry | peptide, 200 mM ammonium acetate | 20 µM Kelch domain-containing protein 2, pH 7 | relative to: total Kelch domain-containing protein 2 signal | fraction of protein bound | 1.1%

Excerpt of the above:
Substance | tested on | test | system | conditions | how to read | endpoint | result
CC[C@H](C)[C@H](NC(=O)[C@@H]1CSSC[C@@H]2NC(=O)[C@H]([C@@H](C)O)NC(=O)[C@H](C(C)C)NC(=O)CNC(=O)[C@H](CC(N)=O)NC(=O)[C@@H](NC(=O)[C@@H]3CCCN3C(=O)[C@H](CC(N)=O)NC(=O)[C@H](CC(N)=O)NC(=O)[C@@H](N)CC(C)C)CSSC[C@H](NC(=O)[C@H](CCCNC(=N)N)NC(=O)[C@H](Cc3ccc(O)cc3)NC(=O)CNC(=O)[C@H](CO)NC(=O)[C@@H]3CCCN3C2=O)C(=O)N[C@@H](CO)C(=O)N[C@@H]([C@@H](C)CC)C(=O)N[C@@H](C(C)C)C(=O)N[C@@H](CC(=O)O)C(=O)N[C@@H](CCCCN)C(=O)N[C@@H](CCC(N)=O)C(=O)N1)C(=O)N[C@@H](CCCCN)C(=O)N[C@@H](CCCCN)C(=O)N[C@@H](CCC(=O)O)C(=O)O | Trpv1 (Mus musculus, UniProt Q704Y3, E571A) | ion current, activator, whole-cell patch clamp | HEK293T | pH 7.2, 22 °C | – | Hill coefficient | 1.02 ± 0.06
Oc1ccc(-c2c[se]cc2-c2ccc(O)c(F)c2)cc1F | ESR1 | antagonist | HEK293T | highest tested concentration, together with: estradiol 10 nM | relative to: estradiol alone | efficacy | 33 ± 6%
CC(C)(NC(=O)c1nn(Cc2ccc(F)cc2)c2ccccc12)C1CCCN(CC(N)=O)C1 (stereo not drawn) | CNR2 | calcium mobilization, agonist | CHO-K1 expressing Gαq16 | – | relative to: CP55,940 maximum | Emax | 13 ± 2%
Oc1ccc(-c2cc(Br)c(-c3ccc(O)cc3F)[se]2)c(F)c1 | ESR2 | antagonist | HEK293T | highest tested concentration, 24 h, together with: estradiol 10 nM | relative to: estradiol alone | efficacy | 59 ± 8%
O=Cc1ccc(COc2ccccc2)o1 | Hemoglobin subunit alpha, with sickle beta chain (HBA1, Homo sapiens, UniProt P69905) | oxygen affinity | sickle red cell lysate | 2000 µM | relative to: untreated | P50 change | 45.4 ± 14.6%
NWFDRSHTLFHS | HIV-1 neutralising antibody 4E10 | phage binding, M13 phage ELISA | peptide | concentration not given | lower = stronger binding | binding titer | 2e+08 M13/mL
